Experimental data collected from several papers.
Lines come from different studies, so protocols differ. Values joined by “and” are separate records of one study, mostly repeats; a detail may differ. Numbers after ± are the reported error. In brackets after ≈: the same amount, converted by molar mass. Bridges are numbered along the chain shown (N, C = ends). Where no end group is shown, it is not given here.

Cc1cc2c(C(C)C)c(O)c(O)c(C=O)c2c(O)c1-c1c(C)cc2c(C(C)C)c(O)c(O)c(C=O)c2c1O — EC20 (mitochondrial swelling; BALB/cByJ female mouse liver mitochondria; 30 min, added: succinate + rotenone; relative to: CaCl2 maximal swelling): > 10 µM
FFPKVAGVAAKVLKKFCTISKKC (disulfide 17-23 (inferred)) (disulfide) — HC50 (haemolysis; horse erythrocytes; 2 h, 37 °C): > 128 µM
CS(=O)(=O)CCCn1c(Cn2c(=O)n(CC(F)(F)F)c3ccncc32)cc2cc(Cl)ccc21 — patients with high aPTT (RSV-infected infants; concentration not given, high dose cohorts): 11%
O=C(c1ccc(F)c(F)c1Nc1ccc(I)cc1F)N1CC(O)([C@@H]2CCCCN2)C1 — treatment-related adverse events (item: retinal detachment; human patients; oral, dose not given, dose escalation, tablet, grade G2): 6%
NC(=O)c1nc(F)c[nH]c1=O — solubility (UV-Vis spectrophotometry; supercritical CO2; 120 min, 338 K, 27 MPa, 783.29 kg/m^3): 2120 µg/mL (≈ 13.5 mM)
CSCC[C@@H]1NC(=O)[C@H](CC(=O)O)NC(=O)CNC(=O)[C@H](CCCNC(=N)N)NC(=O)[C@H](C)NC(=O)[C@H](CCC(=O)O)NC(=O)[C@H](CCCNC(=N)N)NC(=O)[C@@H]2CSSC[C@@H]3NC(=O)[C@H](CO)NC(=O)[C@H]([C@@H](C)O)NC(=O)[C@@H]4CCCN4C(=O)[C@H](C)NC(=O)[C@H](Cc4c[nH]c5ccccc45)NC(=O)[C@H](CC(=O)O)NC(=O)CNC(=O)[C@H](CCCNC(=N)N)NC(=O)CNC(=O)[C@H](CCC(N)=O)NC(=O)[C@@H]4CCCN4C(=O)[C@@H](NC(=O)CNC(=O)C(C)F)CSSC[C@H](NC(=O)CNC(=O)[C@H](C)NC(=O)[C@H](CC(C)C)NC(=O)[C@H](CSSC[C@@H](C(=O)NCC(N)=O)NC(=O)[C@H]([C@@H](C)O)NC(=O)[C@H](CCCNC(=N)N)NC(=O)[C@@H]4CCCN4C1=O)NC(=O)[C@H](CC(=O)O)NC(=O)[C@H](CO)NC(=O)[C@H](CC(=O)O)NC(=O)[C@H](CCC(N)=O)NC(=O)[C@H](CO)NC3=O)C(=O)N[C@@H](C(C)C)C(=O)N2 (stereo partly shown) [fluorine-18 labelled] — tissue uptake (nude mice U-87 MG xenograft, brain; intravenous, 2.5 h): 0.15 ± 0.06 %ID/g
lead — logP (1-octanol/water): 0.71 ± 0.02
ClC=C(Cl)Cl — A2 coefficient (human, exhaled alveolar breath; inhalation, 100 ppmv for 4 h): 6.47 µg/L and 5.96 µg/L and 4.32 µg/L and 10.1 µg/L
O[C@H]1CCCN[C@@H]1CCCn1cnc2c(Cl)c(Cl)ccc21 — Vz/F (healthy human volunteers, plasma; oral, 25 mg, day 1, multiple ascending dose): 1040 L
CC(C)(O)c1ccccc1CC[C@@H](SCC1(CC(=O)O)CC1)c1cccc(/C=C/c2ccc3ccc(Cl)cc3n2)c1 — percent metabolized (human liver mitochondrial preparation; 1 µM, 30 min, 0.5 mg/mL protein): 0%
CCCCCOc1ccc(-c2cc(-c3ccc(C(=O)N[C@H]4C[C@@H](O)[C@@H](O)NC(=O)[C@@H]5[C@@H](O)[C@@H](C)CN5C(=O)[C@H]([C@H](O)CC(N)=O)NC(=O)[C@H]([C@H](O)[C@@H](O)c5ccc(O)c(OS(=O)(=O)O)c5)NC(=O)[C@@H]5C[C@@H](O)CN5C(=O)[C@H]([C@@H](C)O)NC4=O)cc3)no2)cc1 — AUC(tau) (human, 4 months to <2 years, plasma; intravenous, 4.5 mg/kg once daily, day 7): 278000 ng·h/mL
CC1(C)S[C@@H]2[C@H](NC(=O)[C@H](C(=O)O)c3ccsc3)C(=O)N2[C@H]1C(=O)O — relative error (rat plasma; 30 ng/mL, 24 h, room temperature, short-term stability; relative to: nominal concentration): 1.3%
[123I]c1cncc(OC[C@@H]2CCN2)c1 — tissue/plasma ratio (SPECT; human, temporal lobe; intravenous bolus, 8.8 mCi; relative to: plasma): 4.48
CCc1cccc(CC)c1N(COC)C(=O)CCl — remaining amount (LC-MS/MS; herbicide solution; 2 h, 23 °C, added: 254 nm UV exposure): 1.51 ± 0.1%
CCCCCOc1ccc(-c2cc(-c3ccc(C(=O)N[C@H]4C[C@@H](O)[C@@H](O)NC(=O)[C@@H]5[C@@H](O)[C@@H](C)CN5C(=O)[C@H]([C@H](O)CC(N)=O)NC(=O)[C@H]([C@H](O)[C@@H](O)c5ccc(O)c(OS(=O)(=O)O)c5)NC(=O)[C@@H]5C[C@@H](O)CN5C(=O)[C@H]([C@@H](C)O)NC4=O)cc3)no2)cc1 — central volume (population PK model; human infants, plasma; dose not given): 0.61 L/1.8 kg
CNC(=O)c1ccc(-c2cnn3ccc(C(=O)N(C)c4ccc(Cl)c(C(=O)OC)c4)cc23)cc1 — AUC(0-8 h) (beagle dogs, both sexes, plasma; oral, 50 mg/kg/day, day 1, 2-week toxicology study): 111 ng·h/mL
CCCCCCCCCCCCCCCCCC(=O)N[C@H](C(=O)N[C@H](C(=O)N[C@@H](CCCNC(=N)N)C(=O)N[C@@H](CCCNC(=N)N)C(=O)N[C@@H](C)C(=O)N[C@@H](CC(=O)O)C(=O)N[C@@H](CCCNC(=N)N)C(=O)N[C@@H](C)C(=O)N[C@@H](C)C(=O)N[C@H](C(=O)N1CCC[C@H]1C(=O)NCC(=O)NCC(=O)NCC(=O)NCC(=O)N[C@@H](CCCNC(=N)N)C(=O)NCC(=O)N[C@@H](CC(=O)O)C(=O)O)C(C)C)C(C)C)[C@@H](C)CC — volume of distribution (ELISA; Sprague Dawley rat male, blood; intravenous, 2.415 mg/kg): 2.66 ± 0.23 L/kg
O=C(Nc1ccccc1)C1CCN(C(=O)Oc2cccnc2)CC1 — aspartate aminotransferase (human, serum; day 14): 108 U/L
[18F]CCCOc1ccccc1OC(c1ccccc1)C1CNCCO1 (stereo not shown) — log P (1-octanol/phosphate buffer; pH 7.4): 2 to 2.47
O=c1[nH]c(=O)[nH]c(=O)[nH]1 — serum concentration (LC-MS/MS; pregnant female rat, serum; oral, 1000 mg/kg/day, 10 days): 55.8 µg/mL and 80.5 µg/mL and 23 µg/mL and 314 µg/mL and 15.3 µg/mL
CC(=O)N[C@H](CCCCN)C(=O)N[C@H](CC(C)C)C(=O)N[C@@H](CCN)C(=O)N[C@H](CO)C(=O)N[C@H](CC(C)C)C(=O)N[C@H](CC(C)C)C(=O)N[C@@H](CCN)C(=O)N[C@@H](C(=O)N[C@H](CC(C)C)C(=O)N[C@H](CO)C(=O)N[C@@H](CCN)C(=O)N[C@H](C)C(=O)N[C@H](C)C(=O)N[C@H](C)C(=O)N[C@H](C)C(=O)N[C@H](C)C(=O)N[C@H](CC(C)C)C(=O)N[C@@H](CCN)C(=O)N[C@@H](C(=O)N[C@H](CC(C)C)C(=O)N[C@H](CC(C)C)C(=O)N[C@@H](CCN)C(=O)N[C@H](C)C(=O)N[C@H](CC(C)C)C(=O)N[C@H](CO)C(=O)N[C@@H](CCN)C(N)=O)[C@H](C)O)[C@H](C)O — HC50 (human erythrocytes; 18 h, pH 7.4, 37 °C, 50% hemolysis): 20 µg/mL
O=c1[nH]c(Cc2ccccn2)nc2c1cnn2C1CCOCC1 — AUC(0-inf) (healthy men, extensive metabolizers, plasma; oral, 50 mg single dose, tablet, geometric mean): 0.539 µM·h
COc1ccc(C[C@@H]2NC(=O)[C@H]([C@@H](C)O)NC(=O)[C@@H]3[C@@H]4CCN3C(=O)[C@@H]3Cc5cn(c6ccc(F)cc56)CCCCCCN(Cc5ccc(cc5)CCNC(=O)[C@]5(C)CCCN5C2=O)C(=O)CCC(=O)N[C@@H](C)C(=O)N[C@H](CNC(=O)CCCCC[N+](C)(C)C)C(=O)N[C@@H](Cc2cccc(c2)CNC(=O)CO4)C(=O)N3)cc1 — plasma concentration (fasted healthy men, plasma; oral, 100 mg single dose, 24 h, with 1800 mg Labrasol, median): 8.47 nM
CCCCCOc1ccc(-c2ccc(-c3ccc(C(=O)N[C@H]4C[C@@H](O)[C@@H](OCC[N+](C)(C)C)NC(=O)[C@@H]5[C@@H](O)[C@@H](C)CN5C(=O)[C@H]([C@@H](C)O)NC(=O)[C@H]([C@H](O)[C@@H](O)c5ccc(O)cc5)NC(=O)[C@@H]5C[C@@H](O)CN5C(=O)[C@H]([C@@H](C)O)NC4=O)cc3)cc2)cc1 — Vz/F (healthy adult humans, plasma; subcutaneous, 10 mg, single dose, geometric mean): 68.5 L
CN[C@@](C)(C[18F])C(=O)O — tissue uptake (SCID mouse A549 xenograft, heart; 30 min, post injection): 3.6 ± 0.4 %ID/g
CC(=O)O[C@H]1C(=O)[C@@]2(C)[C@H]([C@H](OC(=O)c3ccccc3)[C@]3(O)C[C@H](OC(=O)[C@H](O)[C@@H](NC(=O)c4ccccc4)c4ccccc4)C(C)=C1C3(C)C)[C@]1(OC(C)=O)CO[C@@H]1C[C@@H]2O — AST (BALB/c mouse, serum; intraperitoneal, 10 mg/kg every three days, 60 days): 4.42 mmol/L and 6.06 mmol/L and 8.33 mmol/L
CC[C@H](C)[C@H](NC(=O)[C@@H](N)CCCNC(=N)N)C(=O)N[C@H](C(=O)N1CCC[C@H]1C(=O)N[C@@H](C)C(N)=O)C(C)C — AUC(0-t) (human, plasma; intravenous, 2 mg/kg, single dose, healthy volunteers): 491 ng·h/mL
c1cc2ccc3cccc4ccc(c1)c2c34 — tissue concentration (HPLC-fluorescence; Wistar rat, male, jejunum; oral, 4 mg/kg, 24 h): 28.3 ± 12.4 ng/g
COc1cc(/C2=C/CCCCc3c2ccc(OC)c3OP(=O)([O-])[O-])cc(OC)c1OC.[Na+].[Na+] — tolerability (SCID mice, non-tumour-bearing; 120 mg/kg, dose escalation 60 to 150 mg/kg): not toxic
CC(=O)N[C@@H](Cc1c[nH]c2ccccc12)C(=O)N[C@H](C(=O)N[C@@H](Cc1c[nH]c2ccccc12)C(=O)NCC(=O)N1CCC[C@H]1C(=O)NCC(=O)N[C@H](C(=O)NCC(=O)N[C@@H](CCCCN)C(=O)N[C@@H](Cc1c[nH]c2ccccc12)C(=O)N[C@H](C(=O)N[C@@H](Cc1c[nH]c2ccccc12)C(N)=O)C(C)C)[C@@H](C)O)C(C)C — Tm (circular dichroism; phosphate buffer; pH 6.5): 23.9 ± 2.5 °C
CC(=O)N[C@H](CCCCNC(=O)C(C)F)C(=O)N[C@@H](CS)C(=O)N[C@@H](CS)C(=O)N[C@@H](CCC(=O)O)C(=O)N[C@@H](Cc1c[nH]cn1)C(=O)N[C@H](Cc1ccccc1)C(=O)N[C@@H](CCCNC(=N)N)C(=O)N[C@@H](Cc1c[nH]c2ccccc12)C(=O)N[C@@H](CS)C(=O)N[C@@H](CCCNC(=N)N)C(=O)N1CCC[C@H]1C(=O)N[C@H](C(N)=O)C(C)C (stereo partly shown) [fluorine-18 labelled] — tissue uptake (C57BL/6 mice, male, B16-F10 tumour, spleen; intravenous, 2 h): 0.34 ± 0.07 %ID/g
